{"data": "Measurements from different studies", "note": "Protocols differ between the studies behind these lines."}
{"SMILES": "CC(=O)O[C@H]1C[C@H](O[C@H]2[C@@H](O)C[C@H](O[C@H]3[C@@H](O)C[C@H](O[C@H]4CC[C@@]5(C)[C@H](CC[C@@H]6[C@@H]5C[C@@H](O)[C@]5(C)[C@@H](C7=CC(=O)OC7)CC[C@]65O)C4)O[C@@H]3C)O[C@@H]2C)O[C@H](C)[C@H]1O[C@@H]1O[C@H](CO)[C@@H](O)[C@H](O)[C@H]1O", "cell line": "primary human keratinocytes uninfected", "method": "live/dead staining", "time": "20 h", "CC50": "0.33 µM"}
{"SMILES": "Nc1nc(CC(O)c2ccc(Cl)cc2)c(Br)c(=O)[nH]1 (centres unmarked)", "cell line": "CRFK", "effect on": "cytotoxicity", "method": "MTS", "CC50": "> 100 µM"}
{"SMILES": "CCC[C@H](NC(=O)[C@@H]1[C@H]2CCC[C@H]2CN1C(=O)[C@@H](NC(=O)[C@@H](NC(=O)c1cnccn1)C1CCCCC1)C(C)(C)C)C(=O)C(=O)NC1CC1", "cell line": "HEK293T", "effect on": "cell viability", "method": "MTT", "time": "48 (unit not given)", "CC50": "> 50 µM"}
{"SMILES": "CC(C)(O)Cc1nc(N)[nH]c(=O)c1Br", "cell line": "CRFK", "effect on": "cytotoxicity", "method": "MTS", "CC50": "> 100 µM"}
{"SMILES": "CC[C@H](C)[C@H](NC(=O)[C@H](CCCNC(=N)N)NC(=O)[C@H](CCCCN)NC(=O)[C@H](CCC(N)=O)NC(=O)[C@H](CCCNC(=N)N)NC(=O)[C@H](CCCNC(=N)N)NC(=O)[C@H](Cc1c[nH]cn1)NC(=O)[C@H](CC(C)C)NC(=O)[C@H](CC(C)C)NC(=O)[C@H](CCCNC(=N)N)NC(=O)[C@H](CC(C)C)NC(=O)CN)C(=O)N[C@H](C(=O)NCC(=O)NCC(=O)N[C@@H](CCCCN)C(=O)N[C@@H](CC(N)=O)C(=O)N[C@@H](CO)C(=O)N[C@@H](CC(C)C)C(=O)N[C@@H](CCCNC(=N)N)C(=O)NCC(=O)NCC(=O)N[C@@H](Cc1c[nH]c2ccccc12)C(=O)N1CCC[C@H]1C(=O)N[C@@H](Cc1c[nH]c2ccccc12)C(=O)N[C@@H](CCC(N)=O)C(=O)N[C@H](C(=O)N[C@@H](CO)C(=O)N[C@@H](CC(C)C)C(=O)N[C@@H](CCCNC(=N)N)C(=O)N[C@@H](CC(C)C)C(=O)N[C@@H](CCCCN)C(=O)O)C(C)C)[C@@H](C)CC", "cell line": "HaCaT", "effect on": "cell viability", "method": "MTT", "CC50": "26.9 µM"}
{"SMILES": "C=C(C)[C@@]12C[C@@H](COC(=O)c3ccccc3)[C@@]34OC5(O[C@@H]1[C@@H]3[C@@H]1O[C@]1(CO)[C@@H](O)[C@@]1(O)[C@H]4[C@H]([C@H](C)[C@@H]1OC(=O)c1ccccc1)[C@H](C)CCCCCC[C@H]5O)O2", "cell line": "MT-4", "effect on": "cytotoxicity", "CC50": "> 1.29 µM"}
{"SMILES": "CC[C@H](C)[C@H](NC(=O)[C@H](CCCCN)NC(=O)[C@H](CCCNC(=N)N)NC(=O)[C@H](CCC(N)=O)NC(=O)[C@H](CCCNC(=N)N)NC(=O)CNC(=O)[C@H](Cc1ccccc1)NC(=O)[C@H](CCCNC(=N)N)NC(=O)[C@H](CCCNC(=N)N)NC(=O)[C@H](Cc1ccccc1)NC(=O)[C@H](CC(C)C)NC(=O)[C@@H]1CCCN1C(=O)[C@@H](NC(=O)[C@H](CC(N)=O)NC(=O)[C@@H](NC(=O)[C@@H](NC(=O)[C@H](CO)NC(=O)[C@H](CC(N)=O)NC(=O)[C@H](CCCNC(=N)N)NC(=O)[C@@H]1CCCN1C(=O)[C@@H](NC(=O)[C@@H]1CCCN1C(=O)[C@@H](N)Cc1ccccc1)[C@@H](C)CC)[C@@H](C)O)C(C)C)[C@@H](C)CC)C(=O)NCC(=O)NCC(=O)N[C@@H](CCCNC(=N)N)C(=O)NCC(=O)N[C@@H](CCCNC(=N)N)C(=O)N[C@H](C(=O)N[C@H](C(=O)N[C@@H](CO)C(=O)N1CCC[C@H]1C(=O)N[C@@H](Cc1ccc(O)cc1)C(=O)N[C@@H](CCCNC(=N)N)C(=O)N[C@H](C(=O)N1CCC[C@H]1C(=O)N[C@H](C(=O)N[C@@H](CC(C)C)C(=O)N[C@@H](CCCNC(=N)N)C(=O)N[C@@H](CCCNC(=N)N)C(=O)N[C@@H](Cc1c[nH]cn1)C(=O)N[C@@H](CCCNC(=N)N)C(=O)N[C@@H](Cc1ccc(O)cc1)C(=O)N[C@@H](CO)C(=O)N[C@H](C(=O)N[C@@H](Cc1ccccc1)C(=O)N[C@@H](CCCNC(=N)N)C(=O)O)[C@@H](C)CC)C(C)C)[C@@H](C)O)[C@@H](C)CC)[C@@H](C)CC", "cell line": "HaCaT", "effect on": "cell viability", "method": "MTT", "CC50": "47.3 µM"}
{"SMILES": "C=C[C@@H]1C[C@]1(NC(=O)[C@@H]1C[C@@H](Oc2ncc(OC)c3ccc(Cl)cc23)CN1C(=O)[C@@H](NC(=O)OC(C)(C)C)C(C)(C)C)C(=O)NS(=O)(=O)C1CC1", "cell line": "HEK293T", "effect on": "cell viability", "method": "MTT", "time": "48 (unit not given)", "CC50": "> 50 µM"}
{"note": "Repeated from above:"}
{"SMILES": "CCC[C@H](NC(=O)[C@@H]1[C@H]2CCC[C@H]2CN1C(=O)[C@@H](NC(=O)[C@@H](NC(=O)c1cnccn1)C1CCCCC1)C(C)(C)C)C(=O)C(=O)NC1CC1", "cell line": "HEK293T", "effect on": "cell viability", "method": "MTT", "time": "48 (unit not given)", "CC50": "> 50 µM"}
